{"data": "Results gathered from unrelated publications", "HLA class I histocompatibility antigen, A alpha chain allele A*24:02": "HLA class I histocompatibility antigen, A alpha chain, allele A*24:02 (Homo sapiens, UniProt P04439)", "note": "Lines come from different studies, so protocols differ. ± marks the error that the study gave.", "sequence of UniProt Q64663 (whole entry, unmodified, looked up)": "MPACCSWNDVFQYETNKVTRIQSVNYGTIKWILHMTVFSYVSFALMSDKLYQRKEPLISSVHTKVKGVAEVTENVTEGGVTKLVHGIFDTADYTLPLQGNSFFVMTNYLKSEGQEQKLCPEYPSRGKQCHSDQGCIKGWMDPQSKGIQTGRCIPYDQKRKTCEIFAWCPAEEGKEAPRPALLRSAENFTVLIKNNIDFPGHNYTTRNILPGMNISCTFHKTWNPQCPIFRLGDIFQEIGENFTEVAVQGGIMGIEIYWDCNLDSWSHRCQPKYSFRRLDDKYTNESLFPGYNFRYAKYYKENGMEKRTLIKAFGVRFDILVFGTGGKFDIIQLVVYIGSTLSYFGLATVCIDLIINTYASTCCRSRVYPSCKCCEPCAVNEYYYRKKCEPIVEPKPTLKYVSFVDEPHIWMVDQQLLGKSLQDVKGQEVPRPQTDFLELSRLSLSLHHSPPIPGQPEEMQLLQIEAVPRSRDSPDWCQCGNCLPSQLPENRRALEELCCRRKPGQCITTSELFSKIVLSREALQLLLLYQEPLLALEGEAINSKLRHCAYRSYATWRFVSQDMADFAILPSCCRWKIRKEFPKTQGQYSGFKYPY"}
{"Substance": "11-deoxycorticosterone", "tested on": "CYP11B2 (human)", "assay": "substrate binding, stopped-flow global kinetic fitting", "test system": "purified enzyme", "conditions": "model, 4-state, linear IF, together with: equimolar adrenodoxin", "endpoint": "Kd", "value": "2060 nM"}
{"Substance": "colistin", "tested on": "Klebsiella pneumoniae", "assay": "broth microdilution", "test system": "clinical isolate RKI-No_393/16", "endpoint": "MIC", "value": "64 µg/mL"}
{"Substance": "GSGAGKETEC", "tested on": "human SCRIB PDZ3-4 tandem (MBP fusion)", "assay": "automated holdup", "test system": "peptide, crude extract", "conditions": "concentration not given, uncorrected, unit not given", "how to read": "relative to: biotin control resin, higher = stronger binding", "endpoint": "binding intensity", "value": 0.758}
{"Substance": "STVQLIMQL", "tested on": "HLA class I histocompatibility antigen, A alpha chain allele A*24:02", "assay": "conformational ELISA", "test system": "peptide", "conditions": "concentration not given", "how to read": "relative to: positive control peptide, direction not given", "endpoint": "binding score", "value": "8.3%"}
{"Substance": "epoetin alfa", "tested on": "UT7/EPO", "assay": "microarray, measured: EGR3 (probe 206115_at)", "conditions": "5 U/mL, 90 min, together with: SCF 10 nM", "how to read": "relative to: vehicle", "endpoint": "mRNA level", "value": "11.8 fold"}
{"Substance": "BzATP", "tested on": "P2X purinoceptor 7 (P2rx7, Rattus norvegicus, UniProt Q64663)", "assay": "ion current, agonist, two-electrode voltage clamp", "test system": "Xenopus laevis oocytes", "conditions": "3.70 µM", "how to read": "relative to: highest concentration response", "endpoint": "normalized current", "value": 0.9}
{"Substance": "ERK2", "assay": "co-immunoprecipitation", "test system": "human RBC membrane", "conditions": "DMTMM crosslinker, unit not given, together with: Band 3 peptide 1-56 bait", "how to read": "relative to: negative control", "endpoint": "co-IP enrichment", "value": 0}
{"Substance": "GSGAGSETSV", "tested on": "human SCRIB PDZ3-4 tandem (MBP fusion)", "assay": "automated holdup", "test system": "peptide, crude extract", "conditions": "concentration not given, corrected by standard peak, unit not given", "how to read": "relative to: biotin control resin, higher = stronger binding", "endpoint": "binding intensity", "value": 0.848}
{"Substance": "Teicoplanin", "assay": "measured: stability", "test system": "human serum", "conditions": "1 days, room temperature, low QC", "endpoint": "recovery", "value": "99.9%"}
{"Substance": "PKRSFIESNV", "tested on": "human MAGI1-3/6 PDZ construct (MBP fusion)", "assay": "automated holdup", "test system": "peptide, purified PDZ protein", "conditions": "concentration not given, unit not given", "how to read": "relative to: biotin control resin, higher = stronger binding", "endpoint": "binding intensity", "value": -0.118}
{"Substance": "FKBP12", "assay": "co-immunoprecipitation", "test system": "human RBC cytosol", "conditions": "DMTMM crosslinker, unit not given, together with: Band 3 peptide 1-56 bait", "how to read": "relative to: negative control", "endpoint": "co-IP enrichment", "value": 141}
{"Substance": "sacituzumab", "tested on": "canine TROP2", "assay": "binding, bio-layer interferometry", "endpoint": "Kd", "value": "no binding"}
{"Substance": "DNA 1 CACTGGCCGTCTTACGGTCGCTCTGCTCGACG / DNA 2 CGACCGTAAGACGGCCAGTG (dsDNA; 20 bp, 3' 12 nt overhang)", "tested on": "RECQL 63-592 R203A (Bos taurus, UniProt A0JN36)", "assay": "fluorescence anisotropy", "test system": "double-stranded DNA", "conditions": "together with: Mg2+ 3 mM", "endpoint": "Kd", "value": "6.8 ± 1.3 nM"}
{"Substance": "ALLTWVTQV", "tested on": "Jurkat T cells expressing 1G4 TCR", "assay": "NFAT-eGFP reporter, flow cytometry", "test system": "peptide", "conditions": "concentration not given, HLA-A*02:01 NY-ESO system", "endpoint": "reporter activation", "value": "69%"}
{"Substance": "GSGAGIATEV", "tested on": "human MAGI1-3/6 PDZ construct (MBP fusion)", "assay": "automated holdup", "test system": "peptide, purified PDZ protein", "conditions": "concentration not given, unit not given", "how to read": "relative to: biotin control resin, higher = stronger binding", "endpoint": "binding intensity", "value": -0.0903}
{"Substance": "GLAQWISGA", "tested on": "Jurkat T cells expressing 1G4 TCR", "assay": "NFAT-eGFP reporter, fluorescence microscopy", "test system": "peptide", "conditions": "concentration not given, HLA-A*02:01 NY-ESO system", "endpoint": "reporter activation", "value": "0.0086%"}
{"Substance": "GSGAGRETEV", "tested on": "human SCRIB PDZ3-4 tandem (MBP fusion)", "assay": "surface plasmon resonance", "test system": "peptide", "conditions": "concentration not given", "how to read": "higher = stronger binding", "endpoint": "normalised SPR binding response", "value": "238 normalised RU"}
{"Substance": "TCP-1 alpha", "assay": "co-immunoprecipitation", "test system": "human plasma", "conditions": "unit not given, together with: Band 3 peptide 1-56 bait", "how to read": "relative to: negative control", "endpoint": "co-IP enrichment", "value": 0}
{"Substance": "SLLQWVSQV", "tested on": "Jurkat T cells expressing 1G4 TCR", "assay": "NFAT-eGFP reporter, fluorescence microscopy", "test system": "peptide", "conditions": "concentration not given, HLA-A*02:01 NY-ESO system", "endpoint": "reporter activation", "value": "26%"}
{"Substance": "human complement C3", "assay": "co-immunoprecipitation", "test system": "human RBC membrane", "conditions": "no crosslinker, unit not given, together with: Band 3 peptide 1-56 bait", "how to read": "relative to: negative control", "endpoint": "co-IP enrichment", "value": 0}
{"Substance": "CLLEWITHV", "tested on": "Jurkat T cells expressing 1G4 TCR", "assay": "NFAT-eGFP reporter, fluorescence microscopy", "test system": "peptide", "conditions": "concentration not given, HLA-A*02:01 NY-ESO system", "endpoint": "reporter activation", "value": "0.171%"}
{"Substance": "LMPFGSLLDYV", "tested on": "HLA class I histocompatibility antigen, A alpha chain allele A*24:02", "assay": "conformational ELISA", "test system": "peptide", "conditions": "concentration not given", "how to read": "relative to: positive control peptide, direction not given", "endpoint": "binding score", "value": "2.7%"}
{"Substance": "YLFEWVPRL", "tested on": "Jurkat T cells expressing 1G4 TCR", "assay": "NFAT-eGFP reporter, flow cytometry", "test system": "peptide", "conditions": "concentration not given, HLA-A*02:01 NY-ESO system", "endpoint": "reporter activation", "value": "0.15%"}
{"Substance": "Peginesatide", "tested on": "UT7/EPO", "assay": "MesoScale phosphorylation", "conditions": "mediators other than p38", "how to read": "relative to: compound over rHuEPO", "endpoint": "EC50 ratio", "value": "~50 fold"}
{"Substance": "MTVCNASQRQAHAQATAVSL", "tested on": "HCC827", "assay": "phage binding", "test system": "peptide", "how to read": "relative to: targeting over control phage", "endpoint": "selectivity ratio", "value": "6.3 ± 2.5"}
{"Substance": "EKPIDSETKM", "tested on": "human SCRIB PDZ3-4 tandem (MBP fusion)", "assay": "automated holdup", "test system": "peptide, crude extract", "conditions": "concentration not given, corrected by standard peak, unit not given", "how to read": "relative to: biotin control resin, higher = stronger binding", "endpoint": "binding intensity", "value": -0.131}
{"Substance": "6-carboxyfluorescein", "tested on": "SLCO2A1 (Homo sapiens, UniProt Q92959, Y90A)", "assay": "compound uptake, substrate", "test system": "HEK293F expressing SLCO2A1 Y90A", "conditions": "50 µM", "how to read": "relative to: wild type", "endpoint": "uptake", "value": "51.1%"}
{"note": "Excerpt of the above:"}
{"Substance": "EKPIDSETKM", "tested on": "human SCRIB PDZ3-4 tandem (MBP fusion)", "assay": "automated holdup", "test system": "peptide, crude extract", "conditions": "concentration not given, corrected by standard peak, unit not given", "how to read": "relative to: biotin control resin, higher = stronger binding", "endpoint": "binding intensity", "value": -0.131}
{"Substance": "6-carboxyfluorescein", "tested on": "SLCO2A1 (Homo sapiens, UniProt Q92959, Y90A)", "assay": "compound uptake, substrate", "test system": "HEK293F expressing SLCO2A1 Y90A", "conditions": "50 µM", "how to read": "relative to: wild type", "endpoint": "uptake", "value": "51.1%"}
